Published values from different studies.
Parts stem from different laboratories: compare values within a part only. Substitutions count along the parent as printed.

Series 1
Target: Sal-like protein 4, full length isoform B (SALL4, Homo sapiens, UniProt Q9UJQ4-2, residues 1-616)
Method: universal PBM
Molecule type: double-stranded DNA, one strand shown
Medium: in vitro
Concentration: not given
Setting: 8-mer, flanks averaged, mean of replicates
Reading: higher = stronger binding
Target sequence (chain): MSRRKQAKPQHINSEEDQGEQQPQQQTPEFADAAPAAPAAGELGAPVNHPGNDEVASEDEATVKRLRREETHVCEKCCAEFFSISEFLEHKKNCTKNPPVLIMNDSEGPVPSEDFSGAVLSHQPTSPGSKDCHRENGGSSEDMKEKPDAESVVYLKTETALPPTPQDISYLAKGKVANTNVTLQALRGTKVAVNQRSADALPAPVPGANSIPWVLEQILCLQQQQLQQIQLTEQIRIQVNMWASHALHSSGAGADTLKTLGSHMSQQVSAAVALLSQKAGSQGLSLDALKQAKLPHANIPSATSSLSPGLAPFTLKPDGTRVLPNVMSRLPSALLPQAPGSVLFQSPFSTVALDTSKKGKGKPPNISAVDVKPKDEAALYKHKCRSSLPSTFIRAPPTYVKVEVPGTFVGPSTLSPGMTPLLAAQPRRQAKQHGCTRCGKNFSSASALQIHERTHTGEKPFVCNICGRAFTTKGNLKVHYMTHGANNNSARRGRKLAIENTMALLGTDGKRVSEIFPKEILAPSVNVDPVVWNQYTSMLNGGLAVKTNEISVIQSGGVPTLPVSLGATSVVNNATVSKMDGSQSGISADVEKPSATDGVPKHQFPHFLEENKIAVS
| Oligonucleotide | E-score |
| --- | --- |
| CTTGTCTC | -0.158 |
| GTTGCGGA | -0.154 |
| ACGAGCGC | -0.199 |
| AAGCGATG | -0.145 |
| ATCTCAAA | 0.187 |
| CATCCCGA | -0.0708 |
| ATATGCCC | 0.0551 |
| AAATTAAG | 0.265 |

Series 2
Target: ABI1, truncated, D143A, DHFR fusion (Arabidopsis thaliana)
Method: DHFR PCA, deep sequencing
Medium: yeast
Setting: methotrexate growth selection, single substitutions
With: (+)-ABA 710 µM
Relative to: wild-type fitted maximum
Reading: higher = stronger binding
Starting sequence: PYL1, truncated, DHFR fusion (Arabidopsis thaliana); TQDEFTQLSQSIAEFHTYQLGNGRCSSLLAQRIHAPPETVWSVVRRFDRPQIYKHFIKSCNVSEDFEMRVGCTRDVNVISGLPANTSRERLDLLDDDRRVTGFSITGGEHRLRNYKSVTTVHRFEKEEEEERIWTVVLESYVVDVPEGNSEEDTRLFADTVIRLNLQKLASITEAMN; partner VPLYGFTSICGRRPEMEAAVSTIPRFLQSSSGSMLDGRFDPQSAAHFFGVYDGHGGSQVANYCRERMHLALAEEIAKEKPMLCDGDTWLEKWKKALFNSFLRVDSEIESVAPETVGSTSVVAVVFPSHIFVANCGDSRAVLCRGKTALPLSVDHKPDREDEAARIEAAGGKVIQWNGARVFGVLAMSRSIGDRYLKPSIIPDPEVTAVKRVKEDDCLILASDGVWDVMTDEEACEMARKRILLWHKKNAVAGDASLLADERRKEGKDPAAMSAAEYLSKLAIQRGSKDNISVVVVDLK
| Substitution | relative binding score [%] |
| --- | --- |
| R98P | 31.5 |
| E38I | 66.3 |
| T1C | 100 |
| C60D | 5.22 |
| F124V | 105 |
| G148D | 95.2 |
| V62C | 92.3 |
| L94R | 65.2 |

Series 3
Target: NFIL3, bZIP domain (human)
Method: DHFR protein complementation
Medium: yeast
Setting: single substitutions, most at no-binding floor
Relative to: wild-type JUN-FOS pair
Reading: higher = stronger binding
Starting sequence: JUN, bZIP domain (human); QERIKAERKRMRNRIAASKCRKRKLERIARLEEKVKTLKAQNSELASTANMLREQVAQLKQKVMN; partner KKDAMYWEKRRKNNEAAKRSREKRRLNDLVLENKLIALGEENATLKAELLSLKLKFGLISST
| Substitution | binding fitness [natural log] |
| --- | --- |
| K39I | -1.35 |
| R30S | -1.34 |
| T48D | -1.48 |
| A40H | -1.41 |
| E32C | -1.36 |
| E32L | -1.42 |
| L31T | -1.57 |
| Q41W | -1.58 |

Other studies, line by line
Starting sequence: viral docking peptide; TSVRRALFTGGSD
| Substitution | target | test | test system | setting | scale | quantity | value |
| --- | --- | --- | --- | --- | --- | --- | --- |
| TSVRRALFTGGYD [S12Y] | CCNF, cyclin fold, Cln2 fusion (human) | yeast growth competition, sequencing | yeast | strong parent motif | relative to: not given, higher = stronger binding | normalised enrichment score | 8.6 |

Excerpt of the above (series 3):
| Substitution | binding fitness [natural log] |
| --- | --- |
| K39I | -1.35 |
